# Published values gathered from unrelated publications.
# A part holds a random share of what one study measured. Substitutions count along the parent as printed.

# Series 1 — method: competition protein-binding microarray; molecule type: double-stranded DNA, one strand shown; matrix: in vitro; concentration: 2 µM; added: Pho4 competitor, 0.05 µM; direction: higher = stronger binding
# Target: Centromere-binding protein 1, full length, His-tagged (CBF1, Saccharomyces cerevisiae, UniProt P17106, residues 1-351)
# Chain of UniProt P17106 (whole entry, looked up): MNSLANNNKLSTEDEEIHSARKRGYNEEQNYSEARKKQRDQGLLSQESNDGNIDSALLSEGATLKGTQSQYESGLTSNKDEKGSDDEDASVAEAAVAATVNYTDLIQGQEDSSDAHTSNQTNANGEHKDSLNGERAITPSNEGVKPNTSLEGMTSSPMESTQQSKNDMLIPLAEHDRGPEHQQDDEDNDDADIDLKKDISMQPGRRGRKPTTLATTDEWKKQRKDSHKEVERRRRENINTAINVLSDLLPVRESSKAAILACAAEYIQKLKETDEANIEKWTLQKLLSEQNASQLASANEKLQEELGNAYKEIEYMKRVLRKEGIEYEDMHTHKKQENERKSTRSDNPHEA
# Notes: whole 60-bp probe, lowest competitor level
Sequence,fluorescence intensity [a.u.]
CTTCTGTAAATTTGCCAGGTGGGTGGACGCGCCCCGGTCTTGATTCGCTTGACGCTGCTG,105
TGCGCAACAACTTGGAAGGTGGGTGTATGTCTAGAAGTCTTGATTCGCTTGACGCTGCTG,54.6
GACGCTGAGCTCCATCACGGGCTACGCCAGCGCAGCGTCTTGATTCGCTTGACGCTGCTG,77
TAGGACATTGTACGACGCGTGTCGGACCATGGAAAAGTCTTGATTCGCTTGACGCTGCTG,70
AGGCCAATGCTGCTAAGCGTGCTAAAGCTAAGGCTCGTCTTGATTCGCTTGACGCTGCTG,55.2
TTTATCGTTTTCTGTGACGTGGCCGATGAGCACCAGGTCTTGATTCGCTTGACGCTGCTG,77.7
CGTCCTAGTGATTGTCACCTTACTTCCATGAGGAAGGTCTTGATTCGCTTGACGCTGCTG,91.9
AAAGCGGTAATTTGTAGCGTGGGTGCAGATATCTATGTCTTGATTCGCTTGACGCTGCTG,85.8
TCGAACGAAAAAAGAAACGTGATAGCGATGTAAGTAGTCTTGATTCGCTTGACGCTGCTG,513
GCAGCAGTGGCCGCACTCGTGGCCGTCGAGTCATCGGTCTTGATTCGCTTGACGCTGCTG,46.1
TAAAAAGGCATTGAACTCGTGGTGACGGGCATACCCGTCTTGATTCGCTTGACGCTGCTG,64.4
CTTCTGTAAATTTGCTGGGTGGGTGGACGCGCCCCGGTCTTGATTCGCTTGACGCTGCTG,87.3
TCGAGGCAAGCTCAAAACGTGACGGCTACACCCCCTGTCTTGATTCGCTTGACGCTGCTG,401
GTTGACTGTCCCCGTCACGATATCTTAATGAGTACTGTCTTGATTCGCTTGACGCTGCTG,166
GAGGCACTGCCTCTCCGCGTGAATGTCACTGAGTCGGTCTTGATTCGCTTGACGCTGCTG,68.2
CGTTCCAAGCCGAGTCACGTTTGTGGTGTTGTCGTAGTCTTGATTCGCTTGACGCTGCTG,449
GAAGCGTACGCCCATCACGTGACGGAAGTTGCAATGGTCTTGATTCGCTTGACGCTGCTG,11500
TCGCCGGACCAAGTTTCCGTGATGGTCGTTCTAGGAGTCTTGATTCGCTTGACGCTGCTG,67.2
AAATAAGGATTTTTGCACGTATATCCAACAGAATTAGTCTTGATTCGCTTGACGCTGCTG,100
AAATTACTAAGTTGACCAGTGGGTGACGCCGTATGAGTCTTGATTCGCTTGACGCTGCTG,67.5
CGCTTGACGAACCATCACGTTTGTCAATAACACTTCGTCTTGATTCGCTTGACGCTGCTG,248
AAAGCGGTAATTTTTCACGTGGATTCACATATCTATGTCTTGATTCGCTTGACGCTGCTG,636
AATTCAAATGTGGACGTCGTGACTCGAAACAGCATAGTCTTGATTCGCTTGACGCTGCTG,230

# Series 2 — method: RNA Bind-n-Seq; molecule type: RNA; matrix: in vitro; concentration: 365 nM; relative to: no-protein control; direction: higher = stronger binding
# Target: RNA binding protein fox-1 homolog 2, RRM domain, GST-SBP tag (RBFOX2, Homo sapiens, UniProt O43251-10, residues 100-194)
# Notes: natural RNA segment, single round, ends assumed
# Construct (chain): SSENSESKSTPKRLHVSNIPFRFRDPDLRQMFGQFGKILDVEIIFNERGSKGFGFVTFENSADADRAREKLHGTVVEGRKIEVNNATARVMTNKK
Sequence,RBNS enrichment (R)
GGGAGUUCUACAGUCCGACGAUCCCUCACUCUCUUUCAUUUAGCUGCCAGUCAUUUUAUGAAAAUGAAGUGCUUCUAAGUAUUUCCUUAAGGUCUGUGAAGAGUAUUUGCCCUGCGUCUUCAUUUCCGUGUGUUGGAAUUCUCGGGUGCCAA,0.469
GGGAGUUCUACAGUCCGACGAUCAGAAGAAGCUUCUUCCAUCUUAUCUACCUACUGCAGCUGCUGCUUUGCGGGGGGGCCCUACUGUACUGAGGGGAAACCCACAAGUGAGCAUGGGGGAAUGCCCAUCCUGGUGGAAUUCUCGGGUGCCAA,0.857
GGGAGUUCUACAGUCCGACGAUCUCUGACCUGCACAACCUUUUCCUCAGCCGACUUCUGGGAAGGAGCUGCCUCGUCCUGACCCACGGAAGGUGGCAGAGUGCUCCCUGCCUGGCCCCUGGCCCCUGGCCCCUUGGAAUUCUCGGGUGCCAA,0.486
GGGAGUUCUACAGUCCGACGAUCGUGUAUAGAUGGAUGGAUGUAACUCAUACUGUACAUUUCCAUCAGGGCACUUAAAAGUUCUGUUAUUUUUGUUUGGUUUUGUUAUUUCAGUCCUCAGUUAAGGCAAGAAUUGGAAUUCUCGGGUGCCAA,0.669
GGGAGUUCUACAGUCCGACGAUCAGACUGUCCUGUCCAGGAAAUCUGGGGGAAGAGGAGUUGCAAUCAGGCCCCAACCCUGUAAUAGGCAAGGAGGAGGAAUCAGGUGAGGCCCUGCCCCCUUUCCAUUCGUGUGGAAUUCUCGGGUGCCAA,0.618
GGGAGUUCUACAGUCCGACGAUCUCUGCACUUACUCCCCAUCAGAAGAUCGAGUUUUAUGCAUCACAGUUAACAUGUCAGCUGGCCCUCCAGGCCCCCGCCCCCAUCCCGUCCACGUUGCUGUGUCGUGAGGUUGGAAUUCUCGGGUGCCAA,1.07
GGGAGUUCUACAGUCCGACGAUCCUCUCUGUAUUUUUUCUUGCAUUGACAUUAUAGACAUUGAGGACCUCAUCCAAACAAUUUAAAAAUGAGUGUGAAGGGGGAACAAGUCAAAAUAUUUUUAAAAGAUCUUCUGGAAUUCUCGGGUGCCAA,0.762
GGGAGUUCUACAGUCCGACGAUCAAAGGGUGGUAUUUCUAUUUGUAAAGAAAAGAAAAAUCAAAUGAAAGCAAGAUUUUUUUUUUUUAAAUAUAAGAAGGCUGGGCGUGGUGGCGCACGCCUGUGAUCCUAGCUGGAAUUCUCGGGUGCCAA,0.784
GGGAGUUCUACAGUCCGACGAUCUAAUCCACUGUGCUGUGGCUCGCUGACCACUGUGUCCUUGUCAUGGACACCAGUGACCAUGCACAGUUGUGUUCCUUGCAUUCUAAGUCAGUGGAGGGAAGCAGAGCUUUUGGAAUUCUCGGGUGCCAA,0.29
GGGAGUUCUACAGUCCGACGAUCACUCCGGGAGCCCAGCCCCCAUCGGGGGCUUCCUGUACCUCCUUUUGCCUGGCUCUGCUCUUUAGACUCCAGAUCCCUACCCCUCAGCAACUAGCUCCCCUGUCGGCCAGUGGAAUUCUCGGGUGCCAA,0.577
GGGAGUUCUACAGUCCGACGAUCCUCGGUUCACUGUUUGUUUUCGAAUGCCUUGUUUUCAUAGAGCCCUAUUCUCUCAGACGGUGGAAUAUUUGGAAAAAUUUUAAAACAAUUAAAAUUUUAAAGCAAUCUUGUGGAAUUCUCGGGUGCCAA,0.529
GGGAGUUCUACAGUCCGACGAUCCCCAUGCUGGCCAGGGGAACCCUCAGGGGACUCCUCUGGGUGAAGGGCAGAUGCUAGCACUGCCUGUUCUUAGUUCUCCUUCCAUUCCUGUCCUGAAGUUCUAACUGCCGUGGAAUUCUCGGGUGCCAA,0.438

# Series 3 — method: protein binding microarray; molecule type: double-stranded DNA, one strand shown; matrix: in vitro; concentration: not given; relative to: not given; direction: higher = stronger binding
# Target: Histone acetyltransferase KAT6A, both winged helices, GST fusion (KAT6A, Homo sapiens, UniProt Q92794, residues 1-181)
# Notes: 8-mer, flanks averaged, mean of 2 arrays, mostly near background
# Residues (chain): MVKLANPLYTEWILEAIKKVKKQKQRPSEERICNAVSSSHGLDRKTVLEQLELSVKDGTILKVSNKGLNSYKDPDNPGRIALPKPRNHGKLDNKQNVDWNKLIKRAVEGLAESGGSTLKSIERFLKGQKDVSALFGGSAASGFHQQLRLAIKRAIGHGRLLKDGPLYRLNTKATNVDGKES
Sequence,E-score
GGATAGAA,-0.016
ATTCCGAA,0.0601
CCTACGCG,0.281
AGTCCAGC,-0.0881
CCGGTTCG,0.159
ATTAGATA,-0.0572
AGTCACAG,-0.162
CTCTCTCC,-0.0706
CTACAACC,-0.0676
GAGTTGCA,-0.193
GGCGGAAC,0.216
ACGACGAT,0.0146
CAGCGAAA,-0.027
GCAGACTA,-0.00408
AATCCACG,0.00756
TAGAAGAA,-0.201
TCTAGAAA,-0.0145
AGCCCCCT,-0.279
ATCACTGA,-0.135
CATCAAGG,-0.222
CGGGGATC,0.149
ACGGTGTC,0.188
CCGATAGC,0.115
AAACTGTC,-0.0868
CGCCTCAC,0.104

# Series 4 — method: universal PBM; molecule type: double-stranded DNA, one strand shown; matrix: in vitro; concentration: 600 nM; direction: higher = stronger binding
# Target: Sal-like protein 4, full length isoform A (SALL4, Homo sapiens, UniProt Q9UJQ4, residues 1-1053)
# Chain of UniProt Q9UJQ4 (whole entry, looked up): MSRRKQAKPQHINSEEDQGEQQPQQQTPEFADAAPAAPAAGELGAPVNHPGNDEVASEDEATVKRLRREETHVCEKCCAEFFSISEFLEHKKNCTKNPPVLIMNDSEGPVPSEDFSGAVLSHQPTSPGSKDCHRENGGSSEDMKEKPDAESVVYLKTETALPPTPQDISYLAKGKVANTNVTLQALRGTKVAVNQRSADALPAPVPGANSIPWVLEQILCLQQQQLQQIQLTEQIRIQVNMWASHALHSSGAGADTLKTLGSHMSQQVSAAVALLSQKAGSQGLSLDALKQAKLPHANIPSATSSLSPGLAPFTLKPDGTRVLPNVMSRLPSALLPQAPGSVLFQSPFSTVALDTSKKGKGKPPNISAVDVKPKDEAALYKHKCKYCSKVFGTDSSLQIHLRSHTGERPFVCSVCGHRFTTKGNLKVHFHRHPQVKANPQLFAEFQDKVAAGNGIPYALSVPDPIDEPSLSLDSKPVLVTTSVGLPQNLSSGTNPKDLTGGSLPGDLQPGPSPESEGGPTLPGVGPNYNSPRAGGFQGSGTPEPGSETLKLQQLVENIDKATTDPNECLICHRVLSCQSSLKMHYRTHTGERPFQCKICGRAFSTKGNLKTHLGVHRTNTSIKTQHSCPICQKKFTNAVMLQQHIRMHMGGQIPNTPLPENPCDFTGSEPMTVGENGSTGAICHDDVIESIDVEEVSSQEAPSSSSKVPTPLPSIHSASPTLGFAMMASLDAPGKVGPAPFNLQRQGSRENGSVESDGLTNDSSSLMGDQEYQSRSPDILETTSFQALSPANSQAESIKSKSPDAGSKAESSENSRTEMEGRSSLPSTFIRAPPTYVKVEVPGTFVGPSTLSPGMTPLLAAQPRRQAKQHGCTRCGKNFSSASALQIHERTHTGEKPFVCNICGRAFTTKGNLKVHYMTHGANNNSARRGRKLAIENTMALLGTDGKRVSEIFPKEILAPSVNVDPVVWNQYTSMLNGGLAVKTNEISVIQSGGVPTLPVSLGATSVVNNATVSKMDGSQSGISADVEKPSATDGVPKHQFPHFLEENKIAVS
# Notes: 8-mer, flanks averaged, mean of replicates
Sequence,E-score
GCGCAGAC,-0.247
CAAAGTAA,0.217
AACGGCAG,-0.266
AATCGCCA,-0.039
AGGCTGTG,-0.134
TCTCGTCA,0.0525
AATTTAGA,0.204
GGGTCGTA,-0.164
AACGAATA,0.154
ATGAATCA,0.231
AGCGGGTG,-0.248
GCTAAATA,0.246
CCCACAGC,-0.187
CAACAACC,-0.136
AGCATTCA,0.0443
ATTCCGCA,-0.0598
ATGAACCG,-0.0669
CGCCAGCC,-0.257
CGCACCGC,-0.31
CCCTTCCA,-0.187
TCGATAGA,0.134
CGACGACC,-0.144
CACAAGCA,-0.0317
GAGGTCGA,-0.108
GCGCCAGC,-0.272

# Series 5 — target: CCND2, cyclin fold, Cln2 fusion (human); method: yeast growth competition, sequencing; matrix: yeast; notes: weak parent motif; relative to: not given; direction: higher = stronger binding
# Starting sequence: REV3L docking peptide (human); PPVIIKYIIINRF; partner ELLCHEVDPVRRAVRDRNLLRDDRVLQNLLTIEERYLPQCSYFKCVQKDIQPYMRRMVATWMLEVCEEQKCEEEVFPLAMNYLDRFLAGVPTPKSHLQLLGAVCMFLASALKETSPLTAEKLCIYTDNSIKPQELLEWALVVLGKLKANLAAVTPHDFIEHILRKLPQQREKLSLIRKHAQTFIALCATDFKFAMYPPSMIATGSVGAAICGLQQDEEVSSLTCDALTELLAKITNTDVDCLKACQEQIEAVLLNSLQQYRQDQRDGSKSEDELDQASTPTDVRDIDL
Variant,normalised enrichment score
PPVAIKYIIINRF [I4A],-0.264
PPVIIKYIIANRF [I10A],-0.227
PPVIIAYIIINRF [K6A],0.0542
PAVIIKYIIINRF [P2A],-0.667
APVIIKYIIINRF [P1A],-0.167
PPVIIKYIIIARF [N11A],0.266
PPVIAKYIIINRF [I5A],-0.314

# Some of these lines once more (series 4):
Sequence,E-score
ATGAATCA,0.231
CGCCAGCC,-0.257
AATTTAGA,0.204
AGCGGGTG,-0.248
CACAAGCA,-0.0317
AACGAATA,0.154
CCCTTCCA,-0.187
ATGAACCG,-0.0669
TCTCGTCA,0.0525
AGCATTCA,0.0443
GAGGTCGA,-0.108
CGCACCGC,-0.31
